Measured values of several laboratories.
Lines come from different studies, so protocols differ. “And” joins repeats or separate records; there may be more than shown. ± marks the error that the study gave.

COC(=O)C1CN1S(=O)(=O)c1ccc(F)cc1F (stereo not shown) gave an IC50 of 60 ± 5 µM (Balb/c 3T3 fibroblasts; cytotoxicity, neutral red uptake; DMEM with 5% FBS; 24 h).
The IC50 of CCCCn1cc(C(=O)O)c(=O)c2cc(F)c(Nc3cccc(Cl)c3)c(N)c21 is reported as 88.7 µM and 88 µM (K562; cell growth or viability, SRB).
The viability of CO/C(=C\C(=O)c1ccc2occc2c1OC)c1ccccc1 is reported as 101 ± 11.1% (differentiated SH-SY5Y; MTT; 1 µM; baseline: control).
For Cc1ccc(S(=O)(=O)N2CC2C(=O)N(C)C)cc1 (stereo not shown), the IC50 was 93 ± 22 µM (Balb/c 3T3 fibroblasts; cytotoxicity, neutral red uptake; DMEM with 5% FBS; 24 h).
For CC[C@H](C)[C@H](NC(=O)[C@H](CCCCN)NC(=O)[C@H](C)NC(=O)[C@H](CC(C)C)NC(=O)[C@H](C)NC(=O)[C@H](CO)NC(=O)[C@H](CC(C)C)NC(=O)[C@H](CC(C)C)NC(=O)[C@H](CCCCN)NC(=O)[C@@H]1CCCN1C(=O)[C@H](CC(C)C)NC(=O)[C@H](Cc1ccccc1)NC(=O)[C@H](CCCCN)NC(=O)[C@H](CCCCN)NC(=O)[C@H](CCCCN)NC(=O)[C@H](CCCCN)NC(=O)[C@H](CCCCN)NC(=O)[C@@H](N)CCCCN)C(=O)N[C@@H](CC(C)C)C(N)=O, the haemolysis was 36.6% (horse erythrocytes; MIC against Staphylococcus aureus, 2 h, 37 °C; baseline: Triton X-100).
CC1(C)C=Cc2c(ccc3c(=O)cc(-c4ccccc4)oc23)O1 has a viability of 98.4 ± 3.4% (differentiated SH-SY5Y; MTT; 10 µM; baseline: control).
The CC50 of O=C(c1ccc(Cl)c(Cl)c1)N1CCCC2=CC3CC(CN4CCCCC34)C21 (stereo not shown) is reported as over 267 µM (Huh-7; cytotoxicity).
The internalization ratio of CC[C@H](C)[C@H](NC(=O)[C@H](CCCCN)NC(=O)[C@H](C)NC(=O)[C@H](CCCNC(=N)N)NC(=O)[C@H](CCCCN)NC(=O)[C@H](CC(N)=O)NC(=O)[C@H](CCC(N)=O)NC(=O)[C@H](Cc1ccccc1)NC(=O)[C@H](Cc1c[nH]c2ccccc12)NC(=O)[C@@H](NC(=O)[C@H](CCCCN)NC(=O)[C@@H](NC(=O)[C@H](CCC(N)=O)NC(=O)[C@H](CO)NC(=O)CNC(=O)CNC(=O)CNC(=O)CNC(=O)CCCC[C@@H]1SC[C@@H]2NC(=O)N[C@@H]21)[C@@H](C)CC)[C@@H](C)CC)C(=O)N[C@@H](CCCCN)C(=O)N[C@@H](CCCCN)C(N)=O is reported as 5 (Caov-3; MALDI-TOF MS; 7 µM, 1 h, 37 °C; baseline: Caov-3 over CHO-K1 and SK-OV-3).
CC(C)c1ccc(S(=O)(=O)N2CC2C(=O)N(C)C)cc1 (stereo not shown) gave an IC50 of 12 ± 2 µM (Balb/c 3T3 fibroblasts; cytotoxicity, neutral red uptake; DMEM with 5% FBS; 24 h).
With CC1(C)C=Cc2c(cc(O)c3c(=O)cc(-c4ccccc4)oc23)O1 the viability was 105 ± 2% (differentiated SH-SY5Y; MTT; 0.1 µM, 24 h, retinoic acid differentiated; baseline: control).
With CC(=O)N[C@@H](CO)C(=O)N[C@@H](CC(=O)O)C(=O)N[C@@H](CCCCNC(=O)CCCC[C@@H]1SC[C@@H]2NC(=O)N[C@@H]21)C(=O)N1CCC[C@H]1C(=O)O the cellular uptake was 96.6 ± 1.9% (A549; flow cytometry; 40 µg/mL, 120 min, 37 °C; baseline: cells).
For COc1cc2c(c3oc(-c4ccccc4)cc(=O)c13)C=CC(C)(C)O2, the viability was 102 ± 1.3% (differentiated SH-SY5Y; MTT; 10 µM; baseline: control).
C[C@H]1[C@H](OC(=O)CCC(=O)OCCc2ccc(O)cc2)O[C@@H]2O[C@@]3(C)CC[C@H]4[C@H](C)CC[C@@H]1[C@@]24OO3 — result for cytotoxicity: “not toxic” (C3PV normal primary fibroblasts; MTT; concentration not given).

Some of these lines once more:
CC1(C)C=Cc2c(ccc3c(=O)cc(-c4ccccc4)oc23)O1 has a viability of 98.4 ± 3.4% (differentiated SH-SY5Y; MTT; 10 µM; baseline: control).
